Experimental data of several laboratories.
Protocols differ between the studies behind these lines. Numbers after ± are the reported error.

SMILES | assay | test system | conditions | how to read | endpoint | value
Cn1c(=O)oc2ccc(-c3ccc(CC(C#N)NC(=O)C4CNCCCO4)c(F)c3)cc21 (stereo not drawn) | – | human | oral, 20 mg once daily, TEAE, multiple ascending dose | – | AST increased incidence | 0%
N=C(N)NCCC[C@@H]1NC(=O)[C@H](Cc2c[nH]c3ccccc23)NC(=O)[C@@H](CC2CCCCC2)NC(=O)[C@@H]2CCCN2C(=O)[C@@H](NC(=O)CCc2ccccc2)CCCNC1=O | – | C57BL/6J mouse, spinal cord | intravenous, 1 mg/kg, single dose, two-compartment model | – | beta elimination rate constant | 0.35 h⁻¹
CC(C)(C)NCC(SS(=O)(=O)O)c1ccccc1 (stereo not drawn) | – | female Swiss Webster mice, plasma | intravenous, 15 mg/kg | – | C0 | 37200 ng/mL
Cc1ccc(OCC(=O)N(Cc2cccs2)c2ccn[nH]2)cc1 | – | male Sprague-Dawley rat, plasma | oral, 30 mg/kg, single dose | – | Cmax | 6.22 ng/mL
COc1cc(NC(C)=O)c2c(c1O)-c1c(OC)c(OC)cc3c1C(C2)N(C)CC3 (stereo not drawn) | – | rat brain homogenate | 100 µg/mL, 4 h, room temperature, short-term storage | – | remaining compound | 93.4 ± 2.7%
CN1CCC[C@]1(C)/C=C/S(=O)(=O)NC(=O)Nc1c2c(cc3c1CCC3)CCC2 | – | human, plasma | oral, 50 mg twice daily, day 14, multiple ascending dose | – | Cmax after second dose | 6700 ng/mL
CC(C)(Sc1cc[n+]([O-])cc1-c1ccc(C#N)c2ccccc12)C(=O)OC1OC(C(=O)O)C(O)C(O)C1O (stereo not drawn) | – | plasma | oral, 15 mg, severe renal impairment | relative to: impaired over normal renal function | AUC(0-inf) ratio | 627%
NC(=O)/C=C/c1cccc(S(=O)(=O)Nc2ccccc2)c1 | – | human, normal liver function, plasma | intravenous, 400 mg/m^2 belinostat, cycle 1 day -7, geometric mean | relative to: metabolite over belinostat | Cmax metabolic ratio | 0.0522
C[C@H](NC(=O)[C@H](C)NC(=O)[C@H](CCCNC(=N)N)NC(=O)[C@H](CCCNC(=N)N)NC(=O)[C@H](CCCNC(=N)N)NC(=O)[C@H](C)NC(=O)[C@H](C)NC(=O)[C@H](CCCNC(=N)N)NC(=O)[C@H](CCCNC(=N)N)NC(=O)[C@H](CCCNC(=N)N)NC(=O)[C@H](CCCNC(=N)N)NC(=O)c1ccc2c(c1)C(=O)OC21c2ccc(O)cc2Oc2cc(O)ccc21)C(=O)N[C@@H](CCCNC(=N)N)C(=O)N[C@@H](CCCNC(=N)N)C(=O)N[C@@H](CCCNC(=N)N)C(=O)N[C@@H](C)C(=O)N[C@@H](C)C(=O)N[C@@H](CCCNC(=N)N)C(=O)N[C@@H](CCCNC(=N)N)C(=O)N[C@@H](CCCNC(=N)N)C(=O)N[C@@H](CCCNC(=N)N)C(=O)O | – | bovine, healthy cartilage explants | 30 µM, 24 h, 37 °C, 5-FAM labelled | relative to: tissue over bath concentration | cartilage uptake ratio | ~360
C=C(c1cc(F)c(C(=O)O)c(F)c1)c1cc2c(cc1C)C(C)(C)CCC2(C)C | – | Sprague-Dawley rat, male | oral, 100 mg/kg, 2 h, sesame oil vehicle | – | blood cholesterol | 78 ± 6.2 mg/dL
NC(=O)CCCn1c2ccc([N+](=O)[O-])cc2c(=O)n1Cc1ccccc1 | resazurin | peritoneal macrophages, BALB/c mice | 48 h, 10% FBS | – | CC50 | 8.3 ± 3.6 µM
CC[C@H](C)[C@H](NC(=O)[C@H](Cc1ccccc1)NC(=O)[C@H](CC(=O)O)NC(=O)[C@H](CCCNC(=N)N)NC(=O)[C@H](Cc1ccccc1)NC(=O)[C@H](Cc1ccccc1)NC(=O)[C@H](CCN)NC(=O)[C@H](CO)NC(=O)[C@H](CC(C)C)NC(=O)[C@H](CCCNC(=N)N)NC(=O)[C@H](CCSC)NC(=O)[C@H](C)N)C(=O)N[C@@H](CCN)C(=O)N[C@@H](CCC(N)=O)C(=O)N[C@@H](CCCNC(=N)N)C(=O)N[C@@H](CCCCN)C(=O)N[C@@H](CCCCN)C(=O)O | circular dichroism | 20% TFE in PBS | 200 µM, pH 7.4, 25 °C | – | helicity | 18.4%
CC1=C(/C=C/C(=O)N2CCN(C(N)=O)CC2)C(C)(C)CCC1 | – | male mice, plasma | oral, 120 mg/kg | – | Cmax | 94.2 nmol/g
CSCOC1C(=O)C2(C)C(OCSC)CC3OCC3(OC(C)=O)C2C(OC(=O)c2ccccc2)C2(O)CC(OC(=O)C(O)C(C=C(C)C)NC(=O)OC(C)(C)C)C(C)=C1C2(C)C (stereo not drawn) | – | male Sprague-Dawley rat, plasma | intravenous, 2 mg/kg | – | MRT(0-t) | 2.8 h
COc1ccc(/C=C/c2ccc(-c3ccc(C)cn3)nc2)cc1 | TCSPC | DMF | – | – | fluorescence lifetime | 0.76 ns
CC(=O)N[C@H](CCNC(=O)c1cc(NC(=O)c2cc(NC(=O)c3cc(NC(=O)c4nccn4C)cn3C)cn2C)cn1C)C(=O)Nc1cn(C)c(C(=O)Nc2cc(C(=O)Nc3cc(C(=O)Nc4cc(C(=O)NCCCN(C)CCCN[14C](=O)c5cccc([14C](=O)O)c5)n(C)c4)n(C)c3)n(C)c2)n1 | – | NSG male mice, A549 xenograft, A549 tumour | intraperitoneal, 20 nmol per animal, 24 h, 3 or 4 weeks after engraftment | – | tissue concentration | 0.23 mg/kg
O=C(O)C1OC(OC2C(COS(=O)(=O)O)OC(OC3C(C(=O)O)OC(OC4C(COS(=O)(=O)O)OC(OC5C(C(=O)O)OC(OC6C(COS(=O)(=O)O)OC(OC7C(C(=O)O)OC(OC8C(COS(=O)(=O)O)OC(OC9C(C(=O)O)OC(OC%10C(COS(=O)(=O)O)OC(OC%11C(C(=O)O)OC(Oc%12ccc([N+](=O)[O-])cc%12)C(O)C%11O)C(NS(=O)(=O)O)C%10O)C(OS(=O)(=O)O)C9O)C(NS(=O)(=O)O)C8O)C(OS(=O)(=O)O)C7O)C(NS(=O)(=O)O)C6O)C(OS(=O)(=O)O)C5O)C(NS(=O)(=O)O)C4O)C(OS(=O)(=O)O)C3O)C(NS(=O)(=O)O)C2OS(=O)(=O)O)C(O)C(O)C1OC1OC(COS(=O)(=O)O)C(O)C(O)C1NS(=O)(=O)O (stereo not drawn) | – | rat, brain | intravenous, 3600 µg/kg per day, 7 days, day 8 | – | organ-to-body weight ratio | 0.71 ± 0.02
CC[C@@H](C)[C@@H](NC(=O)[C@@H](C)NC(=O)[C@@H](CCCCN)NC(=O)[C@@H](CC(C)C)NC(=O)[C@@H](CC(C)C)NC(=O)[C@H](NC(=O)[C@@H](CCCCN)NC(=O)[C@@H](CC(C)C)NC(=O)[C@@H](CCCCN)NC(=O)[C@@H](CCCCN)NC(=O)[C@@H](CCCCN)NC(=O)[C@@H](CCCCN)NC(=O)[C@@H](C)NC(=O)[C@@H](CCCCN)NC(=O)[C@@H](CO)NC(=O)[C@@H](Cc1ccccc1)NC(=O)[C@H](NC(=O)[C@@H](CCCCN)NC(=O)[C@@H](CC(C)C)NC(=O)[C@@H](Cc1ccccc1)NC(=O)[C@@H](CO)NC(=O)[C@@H](CCCCN)NC(=O)[C@@H](Cc1c[nH]c2ccccc12)NC(=O)[C@@H](CCCCN)NC(C)=O)[C@H](C)O)[C@H](C)O)C(=O)N[C@H](CO)C(=O)N[C@H](CCCCN)C(N)=O | RP-HPLC temperature profiling | – | pH 2, 5-80 °C, unit not given | relative to: control peptide | self-association parameter | 3.07
OC1(C(F)(F)F)CCN(c2nc(Nc3ccnc(C(F)(F)F)c3)nc(-c3cccc(C(F)(F)F)n3)n2)C1 (stereo not drawn) | – | monkey, blood | oral, 1 mg/kg | – | oral bioavailability | 69.5%
CC(C)[C@H](NC(=O)[C@@H]1CCCN1C(=O)[C@H](CCCNC(=N)N)NC(=O)[C@H](CS)NC(=O)[C@H](Cc1c[nH]c2ccccc12)NC(=O)[C@H](CCCNC(=N)N)NC(=O)[C@@H](Cc1ccccc1)NC(=O)[C@H](Cc1c[nH]cn1)NC(=O)[C@H](CCC(=O)O)NC(=O)[C@H](CS)NC(=O)[C@H](CS)NC(=O)[C@@H]1CC(=O)N[C@@H](CCCNC(=N)N)C(=O)NCC(=O)N[C@@H](CC(=O)O)C(=O)N[C@H](Cc2ccc(O)cc2)C(=O)N1)C(N)=O [technetium-99m labelled] | – | C57 mouse, female, B16/F1 melanoma | intravenous, 0.037 MBq, 2 h | relative to: tumour over kidneys | tumour to tissue ratio | 0.68
CC(=O)N[C@@H](CC(N)=O)C(=O)NCC(=O)N[C@@H](C)C(=O)N[C@@H](C)C(N)=O | 1H NMR | sodium phosphate buffer 50 mM | pH 6.3, 55 °C | – | half-life of Asn form | 29.5 h
CCCC(CCC(=O)O)NC(=O)c1ccc2c(c1)OCO2 (stereo not drawn) | – | male Sprague-Dawley rat, plasma | oral, 200 mg/kg of parent drug | – | Tmax | 1.5 h
CC12CC(c3ccc(S(C)(=O)=O)cc3)C3=C4CCC(=O)C=C4CCC3C1CCC2(O)C(F)(F)C(F)(F)F (stereo not drawn) | – | human, fasted, plasma | oral, 4 mg, alone, without itraconazole | – | AUC(0-24h), geometric mean | 146 ng·h/mL
Cc1cn(-c2ccc(-c3cc(C)c(N[C@@H](C)c4ccc(F)cc4)nn3)nc2O[11CH3])cn1 | – | rhesus macaque, male, arterial plasma | intravenous, 2 mCi, 60 min | – | parent compound in plasma | ~60%
CCCC1OC2CC3C4CCC5=CC(=O)C=CC5(C)C4C(O)CC3(C)C2(C(=O)COC(=O)C(C)N)O1 (stereo not drawn) | – | rat lung homogenate | 200 µg/mL, 24 h | – | hydrolysed conjugate | 87.8%
CCN(CC)CC#CCNc1ccnc2cc(Cl)ccc12 | – | monkey hepatocytes | 10 µM, 30 min | – | parent compound remaining | 39%
CCCC[C@@H]1NC(=O)[C@@H](NC(=O)[C@H](CCC(=O)O)NC(=O)CNC(=O)CN2CCN(CC(=O)O)CCN(CC(=O)O)CCN(CC(=O)O)CC2)CCCCNC(=O)C[C@@H](C(N)=O)NC(=O)[C@H](C(C)C)NC(=O)[C@@H]2CCCN2C(=O)[C@H](CCCNC(=N)N)NC(=O)CNC(=O)[C@H](Cc2c[nH]c3ccccc23)NC(=O)[C@H](CCCNC(=N)N)NC(=O)[C@@H](Cc2ccccc2)NC(=O)[C@H](Cc2c[nH]cn2)NC(=O)[C@H](CCC(=O)O)NC1=O [gallium-67 labelled] | – | C57 mice, B16/F1 flank melanoma | intravenous, 24 h | relative to: tumour over skin | tissue ratio | 71.7

For quick reference, copied from above:
SMILES | assay | test system | conditions | how to read | endpoint | value
N=C(N)NCCC[C@@H]1NC(=O)[C@H](Cc2c[nH]c3ccccc23)NC(=O)[C@@H](CC2CCCCC2)NC(=O)[C@@H]2CCCN2C(=O)[C@@H](NC(=O)CCc2ccccc2)CCCNC1=O | – | C57BL/6J mouse, spinal cord | intravenous, 1 mg/kg, single dose, two-compartment model | – | beta elimination rate constant | 0.35 h⁻¹
CC12CC(c3ccc(S(C)(=O)=O)cc3)C3=C4CCC(=O)C=C4CCC3C1CCC2(O)C(F)(F)C(F)(F)F (stereo not drawn) | – | human, fasted, plasma | oral, 4 mg, alone, without itraconazole | – | AUC(0-24h), geometric mean | 146 ng·h/mL
Cc1cn(-c2ccc(-c3cc(C)c(N[C@@H](C)c4ccc(F)cc4)nn3)nc2O[11CH3])cn1 | – | rhesus macaque, male, arterial plasma | intravenous, 2 mCi, 60 min | – | parent compound in plasma | ~60%
